Measured values gathered from unrelated publications.
Each line is one published result; not all experiments were run side by side. Several values in a cell are separate wells, animals, samples, runs or records. Numbers after ± are the reported error.

The recovery of C=CC(=O)Nc1cc(Nc2nccc(-c3c[nH]c4ccccc34)n2)c(OC)cc1N(C)CCN(C)C is reported as 71.1% (storage stability; human plasma; 72 h, on ice, LLOQ level).
The Cmax of COCC1CN(C2CCN(c3cc(OC)c(Nc4ncc(Br)c(Nc5ccc6c(c5P(C)(C)=O)OCCO6)n4)cc3C)CC2)C1 is reported as 508 ng/mL (EGFR-mutant NSCLC patients, plasma; oral, 90 mg single dose, geometric mean).
The half-life of Cc1c(Cc2ccc(Cl)c(O[C@@H](C)C(=O)O)c2)c2ccc(C(=O)N[C@@H](C)c3cc(F)cc(C(C)(C)C)c3)cc2n1C is reported as over 1 h (mouse liver microsomes; 1 µM, together with: microsomes 1 mg/mL).
C=CC(=O)N1CCCC(n2c(=O)c3ncccc3n(Cc3ccc(Oc4ccccc4)cc3)c2=O)C1 (centres unmarked) gave a concentration of 92600 ng/mL (male BALB/c mouse, plasma; intraperitoneal, 200 mg/kg, 1 h).
COc1ccc(C(N)=O)cn1 — result for “concentration at time”: 3.81 µM (Han Wistar rats, male, plasma; oral, 30 mg/kg, 4.00 h).
For O=C(Nc1cnccc1-c1ccc([18F])nc1)c1ccnc(NC(=O)C2CC2)c1, the SUV was 8.4 (FVB/NJ mice, both sexes, liver; intravenous, 50 min, median, no P-gp inhibitor).
CC(C)(O)c1ncc([S@](N)(=O)=NC(=O)Nc2c3c(cc4c2CCC4)CCC3)s1 — result for “subjects with TEAEs”: 17% (item: musculoskeletal, connective tissue; healthy human; oral, 100 mg, 14 days, SDD formulation, once daily).
For O=C(CCC(=O)Nc1ccc(Cl)cc1Cl)N/N=C/c1ccc([N+](=O)[O-])o1, the translation activity was 79.6% (Trypanosoma cruzi; reporter mRNA translation, inhibitor, item: Renilla luciferase mRNA; cell-free extract; concentration not given, test 3; relative to: positive over negative control).
For CCCC[C@H](NC(=O)CNC(=O)CNC(=O)[C@H](CCCCNC(=O)[C@H](CC(=O)O)NC(=O)C(C)c1ccc(CC(C)C)cc1)NC(=O)CN1CCN(CC(=O)O)CCN(CC(=O)O)CCN(CC(=O)O)CC1)C(=O)N[C@H]1CC(=O)NCCCC[C@@H](C(N)=O)NC(=O)[C@H](Cc2c[nH]c3ccccc23)NC(=O)[C@H](CCCNC(=N)N)NC(=O)[C@@H](Cc2ccccc2)NC(=O)[C@H](Cc2c[nH]cn2)NC1=O (some centres unmarked) [lutetium-177 labelled], the tumour-to-tissue ratio was 2.7 (C57 mice, tumour; intravenous, 0.037 MBq, 0.5 h; relative to: blood).
Oc1ccnc(-c2cc(O)ccn2)c1.[Cl-].[Cl-].[Ru+2].c1ccc(-c2ccnc3c2ccc2c(-c4ccccc4)ccnc23)cc1.c1ccc(-c2ccnc3c2ccc2c(-c4ccccc4)ccnc23)cc1: “singlet oxygen quantum yield” 0.19 (acetonitrile; basic deprotonated form).
CC1(C)CC[C@]2(NC(=O)C(C)(F)F)CC[C@]3(C)[C@H](C(=O)C=C4[C@@]5(C)C=C(C#N)C(=O)C(C)(C)[C@@H]5CC[C@]43C)[C@@H]2C1 gave a Cmax decrease of 38% (human; oral, dose not given, together with: efavirenz; relative to: compound alone).
CC(C)C[C@H](NC(=O)[C@H](CCCCN)NC(=O)C1CCC=CCCC(NC(=O)[C@H](CCCCN)NC(=O)[C@@H](N)CC(C)C)C(=O)N[C@@H](CCCCN)C(=O)N[C@@H](CC(C)C)C(=O)N[C@@H](CCCCN)C(=O)N2CCC[C@@H]2C(=O)NCC(=O)N[C@@H](CCCCN)C(=O)N[C@@H](CC(C)C)C(=O)N[C@@H](CCCCN)C(=O)N1)C(N)=O (some centres unmarked) gave a retention time of 15.8 min (RP-HPLC C18; hydrophobicity).
CCCCN1C(=O)c2cccc3c(NCCCCCCN4CCOCC4)ccc(c23)C1=O has a fluorescence lifetime of 10.3 ns (DMF).
With [11CH3]N1CCC(NC(=O)c2cc(-c3c(O)cc(O)cc3Oc3ccc([N+](=O)[O-])cc3)on2)CC1 the SUV was 2.2 ± 0.1 (Wistar rat, female, healthy, spleen; intravenous, 18.5 MBq, 10 min).
C/C(N)=N/C(=N\S(=O)(=O)c1ccc(C(F)(F)F)cc1)N1C[C@H](c2ccccc2)C(c2ccc(Cl)cc2)=N1 has a half-life of 1.76 h (mouse liver cytosol).
CN(C)c1ccc(CNCCC2CCOC(C)(C)C2)cc1.Cl (centres unmarked) gave a translation activity of 122% and 109% (Trypanosoma cruzi; reporter mRNA translation, inhibitor, item: Renilla luciferase mRNA; cell-free extract; concentration not given, test 1; relative to: positive over negative control).
Cc1cc(-c2ccc(C(=O)[C@@H]3CCCC[C@H]3C(=O)Nc3cnn4c3C(=O)NCC4)cc2)[nH]n1 — result for “recovery of radioactivity per interval”: 25.3% (human, faeces; oral, 200 mg, 48-72 h; relative to: dose).

Some of these lines once more:
The recovery of C=CC(=O)Nc1cc(Nc2nccc(-c3c[nH]c4ccccc34)n2)c(OC)cc1N(C)CCN(C)C is reported as 71.1% (storage stability; human plasma; 72 h, on ice, LLOQ level).
